Measured values of several laboratories.
Each numbered part is a random draw from the data of one study; scales do not carry over between parts. Positions count from the first letter of the parent shown.

Sample 1
Target: Interferon regulatory factor 5, full length, phosphomimetic (IRF5, Homo sapiens, UniProt Q13568-2, residues 1-514, K96S/S451D/S453D/S456D/S462D)
Method: protein-binding microarray
Molecule type: double-stranded DNA, one strand shown
Matrix: in vitro
Tested at: 250 nM
Notes: 60-bp whole probe
Added: salmon DNA 0.4 mg/ml
Relative to: random background probes
Reading: higher = stronger binding
All sequences stand within: GCCTAGCAC … GTCTTGATTCGCTTGACGCTGCTG
Strand | log fluorescence
GACGGTATCCTTATCCTGAAGTGCTAG | 0.0418 z-score
TTAGGTTTCCTTTTCCTCTAGTGCTAG | 1.63 z-score
TTTCATATATATATGAATATGTGCTAG | 7.9 z-score
TTAGGTTTCAGGACTGGGTTAGTGCTA | 1.51 z-score
GACGCTTTCGACTTTCGGGACGTGCTA | 8.62 z-score
TAAGATTTCAGACTGGATTAGTGCTAG | 0.339 z-score
GGGTCACTCAATCTCAACAGGTGCTAG | -0.478 z-score
TTAGGTTTCGGTGCCGGTTAGTGCTAG | 9.49 z-score

Sample 2
Target: Ras GTPase-activating protein-binding protein 1, full length (G3BP1, Homo sapiens, UniProt Q13283)
Chain of UniProt Q13283 (whole entry, looked up): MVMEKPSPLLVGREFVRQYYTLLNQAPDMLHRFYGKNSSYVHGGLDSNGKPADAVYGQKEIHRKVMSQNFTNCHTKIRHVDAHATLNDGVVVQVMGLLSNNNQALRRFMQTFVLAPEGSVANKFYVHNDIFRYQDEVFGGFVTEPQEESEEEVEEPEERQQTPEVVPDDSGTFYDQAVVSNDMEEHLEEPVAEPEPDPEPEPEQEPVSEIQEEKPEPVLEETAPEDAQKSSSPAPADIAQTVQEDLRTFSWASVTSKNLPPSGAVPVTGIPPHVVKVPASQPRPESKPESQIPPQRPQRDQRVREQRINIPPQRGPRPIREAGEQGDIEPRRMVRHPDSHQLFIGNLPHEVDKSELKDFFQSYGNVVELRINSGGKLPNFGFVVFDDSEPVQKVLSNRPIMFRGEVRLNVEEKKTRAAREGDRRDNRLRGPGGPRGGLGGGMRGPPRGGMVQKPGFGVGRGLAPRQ
Method: RNA Bind-n-Seq
Molecule type: RNA
Matrix: in vitro
Tested at: 200 nM
Notes: whole 134-nt RNA, ends assumed
Added: 150 mM KCl
Relative to: input library
Reading: higher = stronger binding
Strand | log2 enrichment
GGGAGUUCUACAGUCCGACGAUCUAACUUUAGAGGAGGAUCUGAUGGAUAUGGCAGUGGACGUGGAUUAGGGGAUGGCUAUAAUGGGUAUGGAGGAGGACCUGGAGGUGGCAAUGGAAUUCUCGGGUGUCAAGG | 0.341
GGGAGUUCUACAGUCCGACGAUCCAAGUCCUGUGCUACACAUCGUAUGUACCGAAUCGGGGCCCGGGCCCGGGCCCGGAAAGUAUUAUGUUACGCCGUUCGGAUCUGCACUUCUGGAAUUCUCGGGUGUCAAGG | -0.158
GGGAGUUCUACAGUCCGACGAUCUAACUUUAGAGGAGGAUCUGAUGGAUAUGGCAGUGGACGUGGAUUUGGGGAUGGCUAUAAUGGCUAUGGAGGAGGACCUGGAGGUGGCAAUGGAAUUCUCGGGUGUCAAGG | 0.154
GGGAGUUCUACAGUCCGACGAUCUGGCCCUGGUGGCAUACGGGGAGGAAGAGGUGGCCUCAUGGAUCGUGGUGGUCCCGGUGGAAUGUUCAGAGGUGGCCGUGGUGGAGACAGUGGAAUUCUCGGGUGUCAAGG | 0.207
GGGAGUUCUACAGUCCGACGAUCCAAGUCCUGUGCUACACAUCGUAUGUACCGAAUCGGUUUGGGUUUGGGGUUUGGGAAAGUAUUAUGUUACGCCGUUCGGAUCUGCACUUCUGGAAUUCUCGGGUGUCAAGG | -0.318
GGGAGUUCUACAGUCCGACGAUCGUGCUACACAUCGUAUGUACCGAAUCGGGGCCCCCCCGGGGCCCCCCCGGGGCCCCCCCGGGGAAAGUAUUAUGUUACGCCGUUCGGAUCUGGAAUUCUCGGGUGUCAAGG | -1.87
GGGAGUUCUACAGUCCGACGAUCCACAGACAACACGCACCCACACAGACAGAGAGGGAAGGGGUUGGGAUGGGGACAGGGUGCACAGCAGGGCGGGGUAGGACCCCAGCCCCUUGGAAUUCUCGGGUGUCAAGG | 1.97
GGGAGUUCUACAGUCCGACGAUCAAGUCCUGUGCUACACAUCGUAUGUACCGAAUCGGGGUUUGGGGAAAGGGGAGGGGAAAGUAUUAUGUUACGCCGUUCGGAUCUGCACUUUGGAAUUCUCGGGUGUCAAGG | 0.805

Sample 3
Target: ABI1, truncated, D143A, DHFR fusion (Arabidopsis thaliana)
Method: DHFR PCA, deep sequencing
Matrix: yeast
Notes: methotrexate growth selection, single substitutions
Added: (+)-ABA 58 µM
Relative to: wild-type fitted maximum
Reading: higher = stronger binding
Starting sequence: PYL1, truncated, DHFR fusion (Arabidopsis thaliana); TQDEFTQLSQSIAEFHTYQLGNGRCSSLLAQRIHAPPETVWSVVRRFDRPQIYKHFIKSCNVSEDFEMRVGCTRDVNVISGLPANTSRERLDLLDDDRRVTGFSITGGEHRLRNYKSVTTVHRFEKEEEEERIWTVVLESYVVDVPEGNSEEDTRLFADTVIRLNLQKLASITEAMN
Variant | relative binding score [%]
L29G | -5.44
L164C | 89.2
D96Q | 30.5
E129S | 94.4
F5D | 69.2
N165I | -1.98
K168T | 84.7
L94T | 25.1

Other studies, line by line
Starting sequence: PafA, mature enzyme, eGFP fusion (Elizabethkingia meningoseptica, UniProt Q9KJX5); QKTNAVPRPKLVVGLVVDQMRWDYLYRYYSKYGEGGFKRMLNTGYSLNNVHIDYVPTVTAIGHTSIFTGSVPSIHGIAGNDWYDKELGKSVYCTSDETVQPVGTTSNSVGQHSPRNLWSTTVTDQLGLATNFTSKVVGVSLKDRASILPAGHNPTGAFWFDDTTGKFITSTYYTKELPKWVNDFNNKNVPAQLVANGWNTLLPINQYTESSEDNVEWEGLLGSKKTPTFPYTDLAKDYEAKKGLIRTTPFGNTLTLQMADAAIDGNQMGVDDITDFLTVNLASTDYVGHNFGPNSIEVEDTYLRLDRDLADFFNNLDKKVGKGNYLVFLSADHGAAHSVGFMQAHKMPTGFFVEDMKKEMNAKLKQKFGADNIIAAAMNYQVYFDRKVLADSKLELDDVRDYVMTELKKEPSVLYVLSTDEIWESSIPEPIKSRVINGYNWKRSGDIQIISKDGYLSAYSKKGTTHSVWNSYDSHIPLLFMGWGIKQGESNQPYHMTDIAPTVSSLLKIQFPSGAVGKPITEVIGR
Variant | target | assay | system | setting | how to read | endpoint | result
F250V | vanadate, free oxyanion | microfluidic competitive inhibition | in vitro, cell-free expressed | not given, derived from inhibition constants, unchanged parent 676 nM | lower = stronger binding | oxyanion analog dissociation constant | 1030 nM
